Published values collected from several papers.
Several values in a cell are separate wells, animals, samples, runs or records. ± marks the error that the study gave.
CASP3: Caspase-3 (CASP3, Homo sapiens, UniProt P42574)
GBA2: Beta-glucosidase (GBA2, Homo sapiens, UniProt Q9HCG7)
T1: neomycin riboswitch RNA U14C, pseudouridine at 18; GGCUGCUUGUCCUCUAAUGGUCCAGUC

SMILES	target	assay	test system	setting	scale	endpoint	value
N#CN1CC[C@H](C(=O)Nc2nc3c(s2)CN(C(=O)Cn2cc(CNC(=O)CCCC[C@@H]4SC[C@@H]5NC(=O)N[C@@H]54)nn2)CC3)C1	TYMS (Homo sapiens, UniProt P04818)	probe binding, affinity probe, neutravidin pull-down LC-MS/MS	HEK293T, cell lysate	5 µM, 1 h, single replicate, unit not given	higher = more pulled down	iBAQ abundance	3.44e+08 and 1.65e+08 and 1.91e+08
CC(=O)N[C@@H](CC(=O)O)C(=O)N[C@@H](Cc1ccccc1)C(=O)N[C@H](C(=O)N[C@@H](CC(=O)O)C(=O)COC(=O)c1c(C)cccc1C)C(C)(C)C	CASP3	enzyme activity, inhibitor				kinact/KI	179000 M⁻¹ s⁻¹
Nc1nc(SCc2ccc(Cl)cc2)nn1S(=O)(=O)c1ccc(F)cc1	LYPLAL1 (Homo sapiens, UniProt Q5VWZ2)	enzyme activity, activator, gel-based ABPP	purified protein	concentration not given, with: FP-rhodamine	reference: DMSO	probe labeling increase	3.4 fold
OC[C@H]1[C@@H](O)[C@H](O)[C@@H](O)CN1CCCCOCCC12CC3CC(CC(C3)C1)C2	GBA2	inhibitor, 4MU-β-D-glucopyranoside	HEK293T homogenates overexpressing GBA2		reference: GBA1 IC50 over GBA2 IC50	selectivity ratio	58400
COc1ncc2nc(C)n(Cc3ncc(S(N)(=O)=O)cc3F)c2c1-c1ccccc1	ADRA2A (Homo sapiens, UniProt P08913)	agonist, cell-based		10 µM		activation	-0.846%
Cc1ccc(S(=O)(=O)N2CC(C)C2=O)cc1 (stereo not shown)	Chymotrypsinogen A (Bos taurus, UniProt P00766)	enzyme activity, inhibitor, fluorogenic peptide				IC50	inactive
CCCCCCCN1C[C@H](O)[C@@H](O)[C@H](O)[C@@H]1CO	GBA2	inhibitor, 4MU-β-D-glucopyranoside	HEK293T homogenates overexpressing GBA2		reference: GBA1 IC50 over GBA2 IC50	selectivity ratio	17500
C=CC(=O)N1CCCC(n2c(=O)c3ncccc3n(Cc3ccc(Oc4ccccc4)cc3)c2=O)C1 (stereo not shown)	EARP and GARP complex-interacting protein 1 (EIPR1, Homo sapiens, UniProt Q53HC9)	thermal proteome profiling, refers to: EIPR1		unit not given	reference: vehicle	melting temperature shift	-2.26
C[C@H](OCCCCCN1C[C@H](O)[C@@H](O)[C@H](O)[C@H]1CO)c1ccc(-c2ccccc2)cc1	GBA2	inhibitor, 4MU-β-D-glucopyranoside	HEK293T homogenates overexpressing GBA2		reference: GCS IC50 over GBA2 IC50	selectivity ratio	23
CCN(CC)C(CO)c1cccc2c(C)c(C)oc12 (stereo not shown)	LPAR1 (Homo sapiens, UniProt Q92633)	G-protein dissociation, agonist, NanoBiT	HEK-293T	10 nM, wild-type receptor	reference: baseline luminescence	fold change	0.719 and 0.657 and 0.712 and 0.739 and 0.678 and 0.638
OC[C@H]1[C@@H](O)[C@H](O)[C@@H](O)CN1CCCCCOCCC12CC3CC(CC(C3)C1)C2	GBA2	inhibitor, 4MU-β-D-glucopyranoside	HEK293T homogenates overexpressing GBA2		reference: GCS IC50 over GBA2 IC50	selectivity ratio	833
CCCCCC=CC=C1C(=O)C=CC1CC=CCCCC(=O)O (stereo not shown)	Reticulon-4 (RTN4, Homo sapiens, UniProt Q9NQC3)	competitive isoTOP-ABPP	Ramos soluble proteome	100 µM, with: iodoacetamide probe	reference: DMSO over compound-treated, higher = stronger cysteine blockade	isoTOP-ABPP competition ratio	2.9
CC(C)=CCOCCCCCN1C[C@H](O)[C@@H](O)[C@H](O)[C@@H]1CO	GBA2	inhibitor, 4MU-β-D-glucopyranoside	HEK293T homogenates overexpressing GBA2		reference: GCS IC50 over GBA2 IC50	selectivity ratio	328
N=C(N)c1ccc(-c2ccc(-c3ccc(C(=N)N)cc3)s2)cc1	PRMT5 (Homo sapiens, UniProt O14744)	enzyme activity, inhibitor, radiometric		20 µM		remaining activity	61.3%
CCCCCCCOCCCCCN1C[C@H](O)[C@@H](O)[C@H](O)[C@@H]1CO	GBA2	inhibitor, 4MU-β-D-glucopyranoside	HEK293T homogenates overexpressing GBA2		reference: GCS IC50 over GBA2 IC50	selectivity ratio	3
CC(C)[C@@H]1NC(=O)[C@H](Cc2ccccc2)NC(=O)CSC[C@@H](C(N)=O)NC(=O)[C@H](CCC(=O)O)NC(=O)[C@H](CO)NC(=O)[C@H](Cc2c[nH]c3cccc(Cl)c23)NC(=O)[C@H](C2CCCCC2)NC(=O)[C@H](C(C)C)NC(=O)[C@H](Cc2ccc(O)cc2)NC(=O)[C@H](CC(=O)O)NC(=O)[C@H](Cc2c[nH]c3ccccc23)NC(=O)[C@H](Cc2ccc(N)nc2)NC(=O)[C@H](Cc2c[nH]c3ccc(Cl)cc23)NC(=O)[C@H](CCC(=O)O)NC1=O	Interleukin-1 receptor-like 2 (IL1RL2, Homo sapiens, UniProt Q9HB29)	reporter gene (SEAP), inhibitor, HEK-Blue IL-36R reporter	HEK-Blue IL-36R cells	0.0017 µM, 6 h, with: IL-36γ 1 ng/mL		remaining activity	91.5%
NC[C@H]1O[C@H](O[C@H]2[C@H](O[C@@H]3O[C@H](CO)[C@@H](O)[C@H]3O)[C@@H](O)[C@H](N)C[C@@H]2N)[C@H](N)[C@@H](O)[C@@H]1O	T1, neomycin riboswitch RNA U14C, pseudouridine at 18	ITC		pH 6.8, 37 °C, read off a plot		Kd	1060 nM
O=C1c2sc(-c3ccc(N4CCC(CO)CC4)nc3F)nc2CCN1c1cccnc1	TAR DNA-binding protein 43, aggregated (TARDBP, Homo sapiens, UniProt Q13148)	radioligand binding	human, FTLD-TDP type A insoluble extract	2.52 nM		specific binding	0.786 nM and 1.03 nM and 0.956 nM and 1.14 nM
C=CC(=O)N1C[C@H](C)N(c2nc(OC[C@@]34CCCN3C[C@H](F)C4)nc3c(F)c(-c4ccc(F)c5sc(N)c(C#N)c45)c(C(F)(F)F)cc23)C[C@H]1C	GTPase KRas, GDP-bound (KRAS, Homo sapiens, UniProt P01116, C118S/C51S/C80L)	thermal shift		100 µM, with: KRAS-GDP, cysteine-light	reference: DMSO	melting temperature shift	20 °C
CC(=O)N[C@@H](C(=O)N[C@@H](CCCC(=O)O)C(=O)N[C@@H](CCC1CCCCC1)C(=O)N[C@@H](CC(=O)O)C(=O)COC(=O)c1c(C)cccc1C)C1CCCCC1	CASP3	enzyme activity, inhibitor				kinact/KI	26900 M⁻¹ s⁻¹
O=c1cc(NCCO)c2ccccc2o1	ADRA1B (Homo sapiens, UniProt P35368)	calcium mobilization, agonist	COS-7	500 µM	reference: 3 µM ionomycin	agonist activity	5.4 ± 1.22%
CC(=O)N[C@@H](CCC(C)C)C(=O)N[C@@H](CCCC(=O)O)C(=O)N[C@@H](CO)C(=O)N[C@@H](CC(=O)O)C(=O)COC(=O)c1c(C)cccc1C	CASP3	enzyme activity, inhibitor				kinact/KI	27400 M⁻¹ s⁻¹
OC[C@@H]1[C@@H](O)[C@H](O)[C@@H](O)CN1CCCCCOCc1ccc(-c2cncnc2)cc1	GBA2	inhibitor, 4MU-β-D-glucopyranoside	HEK293T homogenates overexpressing GBA2		reference: GBA1 IC50 over GBA2 IC50	selectivity ratio	400
NC1(Cc2ccc(Cl)cc2)CCN(c2ncnc3[nH]ccc23)CC1	Trpm7 (Mus musculus, UniProt Q923J1, F924A)	calcium influx, inhibitor, aequorin luminescence	HEK293T expressing Trpm7			Hill coefficient	1.67 ± 0.34
CCCC[C@H](NC(=O)[C@H](CC(C)C)NC(=O)[C@H](CCC(N)=O)NC(=O)[C@@H](NC(=O)[C@H](CCC(=O)O)NC(=O)C(C)(C)NC(=O)[C@@H](NC(=O)C1(N)CCCC1)C(C)C)[C@@H](C)CC)C(=O)N[C@@H](Cc1c[nH]cn1)C(=O)N[C@@H](CCC(N)=O)C(=O)N[C@@H](CCCCNC(=O)[C@H](CCCNC(=N)N)NC(=O)CCCCCCCCCCCCCCCCC(=O)O)C(N)=O	PTH1R (Homo sapiens, UniProt Q03431)	cAMP response, agonist, GloSensor cAMP	GP-2.3	washout phase		Emax (normalized AUC)	136 ± 30%
CNC(=O)C[C@H](Cc1ccc(C#N)cc1)NC(=O)c1cc(-c2ccc(CN[C@H](C)c3ccc(C)cc3)o2)ccc1Cl	ATPase family AAA domain-containing protein 2, bromodomain (ATAD2, Homo sapiens, UniProt Q6PL18)	thermal shift		25 µM, GST-tagged protein		ΔTm	0 °C
CCCCCN1C[C@@H](O)[C@H](O)[C@H](O)[C@@H]1CO	GBA2	inhibitor, 4MU-β-D-glucopyranoside	HEK293T homogenates overexpressing GBA2		reference: GCS IC50 over GBA2 IC50	selectivity ratio	60
CC[C@H](C)[C@H](NC(=O)N1CC(=O)Nc2ccccc21)C(=O)O	B4GALT1 (Homo sapiens, UniProt P15291)	enzyme activity, inhibitor, UDP-Glo		10 µM	lower means stronger inhibition	luminescence	65300 a.u.

Excerpt of the above:
SMILES	target	assay	test system	setting	scale	endpoint	value
NC[C@H]1O[C@H](O[C@H]2[C@H](O[C@@H]3O[C@H](CO)[C@@H](O)[C@H]3O)[C@@H](O)[C@H](N)C[C@@H]2N)[C@H](N)[C@@H](O)[C@@H]1O	T1, neomycin riboswitch RNA U14C, pseudouridine at 18	ITC		pH 6.8, 37 °C, read off a plot		Kd	1060 nM
C=CC(=O)N1CCCC(n2c(=O)c3ncccc3n(Cc3ccc(Oc4ccccc4)cc3)c2=O)C1 (stereo not shown)	EARP and GARP complex-interacting protein 1 (EIPR1, Homo sapiens, UniProt Q53HC9)	thermal proteome profiling, refers to: EIPR1		unit not given	reference: vehicle	melting temperature shift	-2.26
CCCCCC=CC=C1C(=O)C=CC1CC=CCCCC(=O)O (stereo not shown)	Reticulon-4 (RTN4, Homo sapiens, UniProt Q9NQC3)	competitive isoTOP-ABPP	Ramos soluble proteome	100 µM, with: iodoacetamide probe	reference: DMSO over compound-treated, higher = stronger cysteine blockade	isoTOP-ABPP competition ratio	2.9
